Published values of several laboratories.
Values joined by “and” are separate records of one study, mostly repeats; a detail may differ. ± gives the spread as reported.
Nicotinic acetylcholine receptor alpha1/beta1/epsilon/delta: Nicotinic acetylcholine receptor alpha1/beta1/epsilon/delta (Mus musculus, UniProt P02716+P04756+P09690+P20782)
Chain of UniProt P20782 (whole entry, looked up): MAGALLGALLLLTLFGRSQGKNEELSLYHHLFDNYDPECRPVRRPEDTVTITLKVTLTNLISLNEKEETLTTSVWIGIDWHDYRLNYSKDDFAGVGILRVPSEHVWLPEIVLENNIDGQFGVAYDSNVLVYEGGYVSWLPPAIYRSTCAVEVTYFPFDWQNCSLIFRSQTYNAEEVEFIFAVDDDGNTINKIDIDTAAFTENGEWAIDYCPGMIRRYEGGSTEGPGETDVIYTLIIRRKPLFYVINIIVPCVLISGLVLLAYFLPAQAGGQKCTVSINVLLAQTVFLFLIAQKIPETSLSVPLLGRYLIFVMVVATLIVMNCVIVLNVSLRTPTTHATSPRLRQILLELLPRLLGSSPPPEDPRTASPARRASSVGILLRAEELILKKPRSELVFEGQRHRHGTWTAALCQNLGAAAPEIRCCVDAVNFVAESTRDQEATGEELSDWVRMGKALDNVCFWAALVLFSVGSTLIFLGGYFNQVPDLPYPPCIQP
Chain of UniProt P02716 (whole entry, looked up): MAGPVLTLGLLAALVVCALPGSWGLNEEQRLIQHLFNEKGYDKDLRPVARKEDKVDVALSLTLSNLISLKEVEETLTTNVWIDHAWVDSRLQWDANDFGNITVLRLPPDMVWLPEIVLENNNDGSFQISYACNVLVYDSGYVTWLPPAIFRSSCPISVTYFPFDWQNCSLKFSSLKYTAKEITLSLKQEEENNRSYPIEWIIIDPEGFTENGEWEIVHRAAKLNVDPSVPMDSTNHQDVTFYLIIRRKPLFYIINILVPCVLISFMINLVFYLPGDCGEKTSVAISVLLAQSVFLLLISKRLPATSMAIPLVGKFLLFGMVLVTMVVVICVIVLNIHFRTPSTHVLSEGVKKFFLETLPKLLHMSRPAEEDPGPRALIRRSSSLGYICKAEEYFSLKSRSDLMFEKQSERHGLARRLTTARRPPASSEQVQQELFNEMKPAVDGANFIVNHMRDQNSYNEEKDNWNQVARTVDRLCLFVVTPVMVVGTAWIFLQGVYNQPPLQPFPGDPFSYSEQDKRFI
Chain of UniProt P09690 (whole entry, looked up): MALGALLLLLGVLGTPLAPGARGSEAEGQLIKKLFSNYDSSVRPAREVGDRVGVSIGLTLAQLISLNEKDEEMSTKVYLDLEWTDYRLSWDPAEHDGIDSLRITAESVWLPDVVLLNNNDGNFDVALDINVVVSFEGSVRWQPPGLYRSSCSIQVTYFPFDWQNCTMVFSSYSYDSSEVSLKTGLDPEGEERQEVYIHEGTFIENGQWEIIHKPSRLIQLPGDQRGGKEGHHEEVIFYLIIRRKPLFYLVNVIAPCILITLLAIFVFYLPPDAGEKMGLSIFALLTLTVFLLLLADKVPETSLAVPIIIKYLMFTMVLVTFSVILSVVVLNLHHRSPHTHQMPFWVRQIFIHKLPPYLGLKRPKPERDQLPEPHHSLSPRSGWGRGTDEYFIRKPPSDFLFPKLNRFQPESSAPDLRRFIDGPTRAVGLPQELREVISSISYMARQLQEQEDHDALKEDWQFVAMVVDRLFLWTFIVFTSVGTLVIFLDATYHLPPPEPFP
Chain of UniProt P04756 (whole entry, looked up): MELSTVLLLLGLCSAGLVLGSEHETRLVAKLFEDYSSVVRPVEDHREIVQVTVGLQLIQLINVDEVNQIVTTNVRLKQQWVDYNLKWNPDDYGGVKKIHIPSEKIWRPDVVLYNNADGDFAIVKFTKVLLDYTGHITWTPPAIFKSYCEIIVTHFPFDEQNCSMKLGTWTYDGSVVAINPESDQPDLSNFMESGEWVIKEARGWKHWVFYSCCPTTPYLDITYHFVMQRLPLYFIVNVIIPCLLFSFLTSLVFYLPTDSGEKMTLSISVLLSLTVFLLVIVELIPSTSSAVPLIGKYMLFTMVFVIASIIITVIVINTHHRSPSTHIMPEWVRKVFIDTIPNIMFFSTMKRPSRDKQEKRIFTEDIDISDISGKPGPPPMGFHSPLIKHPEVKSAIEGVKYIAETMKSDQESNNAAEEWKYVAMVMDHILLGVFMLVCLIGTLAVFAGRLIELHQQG
UCHL1: Ubiquitin carboxyl-terminal hydrolase isozyme L1 (UCHL1, Homo sapiens, UniProt P09936)
Chain of UniProt P09936 (whole entry, looked up): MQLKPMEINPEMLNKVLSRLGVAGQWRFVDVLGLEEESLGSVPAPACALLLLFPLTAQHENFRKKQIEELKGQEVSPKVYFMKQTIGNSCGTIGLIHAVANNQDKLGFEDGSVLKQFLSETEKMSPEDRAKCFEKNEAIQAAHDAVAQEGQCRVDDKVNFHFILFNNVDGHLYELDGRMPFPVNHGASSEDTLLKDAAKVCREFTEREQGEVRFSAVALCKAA
ALB: Albumin (ALB, Homo sapiens, UniProt P02768)
Chain of UniProt P27361 (whole entry, looked up): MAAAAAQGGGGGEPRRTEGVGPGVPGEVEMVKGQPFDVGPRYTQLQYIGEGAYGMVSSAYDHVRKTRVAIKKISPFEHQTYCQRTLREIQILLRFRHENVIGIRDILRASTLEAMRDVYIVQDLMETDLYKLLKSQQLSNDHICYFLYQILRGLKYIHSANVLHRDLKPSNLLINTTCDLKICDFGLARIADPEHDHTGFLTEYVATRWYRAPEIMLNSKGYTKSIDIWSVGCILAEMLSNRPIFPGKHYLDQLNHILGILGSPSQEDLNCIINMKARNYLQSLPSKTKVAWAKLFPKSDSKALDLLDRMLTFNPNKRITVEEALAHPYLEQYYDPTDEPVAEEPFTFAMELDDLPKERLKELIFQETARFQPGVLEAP
Chain of UniProt P42866 (whole entry, looked up): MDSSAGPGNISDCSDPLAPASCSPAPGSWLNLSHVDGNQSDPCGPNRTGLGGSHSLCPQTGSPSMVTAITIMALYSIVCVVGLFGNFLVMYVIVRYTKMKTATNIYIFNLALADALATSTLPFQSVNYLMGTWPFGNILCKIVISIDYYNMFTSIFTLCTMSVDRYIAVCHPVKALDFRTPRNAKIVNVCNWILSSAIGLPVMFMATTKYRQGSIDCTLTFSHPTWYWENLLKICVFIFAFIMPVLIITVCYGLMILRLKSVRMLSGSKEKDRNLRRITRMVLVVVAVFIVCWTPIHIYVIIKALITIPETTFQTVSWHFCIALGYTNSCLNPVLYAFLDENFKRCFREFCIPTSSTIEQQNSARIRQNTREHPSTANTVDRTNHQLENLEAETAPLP
Chain of UniProt Q93015 (whole entry, looked up): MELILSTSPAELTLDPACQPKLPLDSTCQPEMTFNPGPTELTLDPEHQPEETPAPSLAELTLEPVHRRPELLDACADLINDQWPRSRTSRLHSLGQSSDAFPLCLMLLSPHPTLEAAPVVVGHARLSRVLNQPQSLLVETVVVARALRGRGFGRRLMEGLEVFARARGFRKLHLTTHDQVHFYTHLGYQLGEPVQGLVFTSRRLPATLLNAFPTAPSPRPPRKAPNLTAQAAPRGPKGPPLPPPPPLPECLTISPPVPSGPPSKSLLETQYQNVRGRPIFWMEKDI
Chain of UniProt P32246 (whole entry, looked up): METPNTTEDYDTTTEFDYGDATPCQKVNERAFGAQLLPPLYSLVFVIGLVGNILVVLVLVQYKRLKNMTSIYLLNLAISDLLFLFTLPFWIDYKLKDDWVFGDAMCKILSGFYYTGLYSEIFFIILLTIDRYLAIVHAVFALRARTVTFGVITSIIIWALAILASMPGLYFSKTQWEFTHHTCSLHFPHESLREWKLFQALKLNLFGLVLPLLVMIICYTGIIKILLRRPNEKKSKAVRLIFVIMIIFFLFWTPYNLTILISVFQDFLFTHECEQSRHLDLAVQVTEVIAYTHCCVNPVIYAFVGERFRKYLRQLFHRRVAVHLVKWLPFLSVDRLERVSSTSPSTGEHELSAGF
Chain of UniProt P63208 (whole entry, looked up): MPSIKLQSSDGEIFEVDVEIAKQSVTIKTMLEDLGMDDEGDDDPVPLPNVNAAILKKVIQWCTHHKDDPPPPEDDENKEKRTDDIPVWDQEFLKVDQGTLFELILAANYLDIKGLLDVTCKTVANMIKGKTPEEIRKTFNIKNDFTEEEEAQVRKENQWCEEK
Chain of UniProt P48730 (whole entry, looked up): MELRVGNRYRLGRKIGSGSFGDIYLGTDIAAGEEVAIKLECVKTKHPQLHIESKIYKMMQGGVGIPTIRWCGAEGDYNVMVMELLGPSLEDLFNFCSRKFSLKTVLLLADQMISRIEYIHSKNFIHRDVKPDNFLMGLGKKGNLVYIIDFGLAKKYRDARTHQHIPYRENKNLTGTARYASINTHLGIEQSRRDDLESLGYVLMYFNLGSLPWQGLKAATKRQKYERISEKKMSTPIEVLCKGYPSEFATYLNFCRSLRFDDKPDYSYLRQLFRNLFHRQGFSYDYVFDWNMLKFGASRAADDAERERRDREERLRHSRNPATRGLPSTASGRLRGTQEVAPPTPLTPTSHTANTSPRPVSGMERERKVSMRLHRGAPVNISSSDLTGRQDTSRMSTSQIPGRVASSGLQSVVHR

Structure (SMILES) | target | test | test system | conditions | scale | measurement | value
COc1ccc(N2C(=O)N(c3c(C)cccc3Cl)Cc3cnc(Nc4ccc(C5CCN(C)CC5)cc4OC)nc32)nc1 | PIK3CG (Homo sapiens, UniProt P48736) | kinase activity |  | 0.5 µM |  | inhibition | -21%
O=C(Nc1cnccc1Cl)N1CCN(Cc2ccc3c(c2)OC(F)(F)O3)CC1 | kainate receptor, rat | binding |  | 50 µM, together with: [3H]kainic acid |  | inhibition | 6%
C[C@H]1CN(c2n[nH]c3nc(N[C@H]4CC[C@H](NS(=O)(=O)CCC(F)(F)F)CC4)ncc23)CCO1 | Nuclear cap-binding protein subunit 1 (Homo sapiens, UniProt Q09161) | Kinobeads competition, item: NCBP1 |  | 0.16 µM, unit not given | baseline: vehicle | remaining binding | 0.94
COc1ncccc1-c1cnn2ccc(N3CCN(C(=O)OC(C)C)CC3)nc12 | Cyclin-dependent kinase 4, with cyclin D1 (CDK4, Homo sapiens, UniProt P11802) | KINOMEscan binding |  | 1 µM | baseline: untreated control | remaining binding | 64%
CCOC(=O)C(C)Oc1ccc(Oc2cnc3cc(Cl)ccc3n2)cc1 (centres unmarked) | S-phase kinase-associated protein 1 (SKP1, Homo sapiens, UniProt P63208) | binding, affinity selection mass spectrometry |  | 100 nM, pooled screen | baseline: other proteins | fold change | 14.4
Cc1ncsc1-c1ccc([C@H](CC(=O)N2CCN(c3ccc(C#Cc4ccc(C(=O)N5CCC(n6cc(-c7ccc8c(c7)CCN8C(=O)Cc7cccc(OC(F)(F)F)c7)c7c(N)ncnc76)CC5)cc4)cn3)CC2)NC(=O)[C@@H]2C[C@@H](O)CN2C(=O)[C@@H](NC(=O)C2(F)CC2)C(C)(C)C)cc1 | RIPK1 (Homo sapiens, UniProt Q13546) | degrader, Western blot | Jurkat | 100 nM, 24 h after wash-out, 24 h pretreatment then washout |  | protein level recovery | 53%
CCn1cnc2c(Nc3cccc(Cl)c3)nc(N[C@H]3CCCC[C@H]3N)nc21 | TRPM8 (Homo sapiens, UniProt Q7Z2W7) | antagonist | HEK293 | 5 µM | baseline: control | remaining activity | 103 ± 1.87%
O=C(O)COP(=O)(O)O | TPI1 (Saccharomyces cerevisiae, UniProt P00942, S211A) | enzyme activity, competitive inhibitor, GPDH/NADH-coupled |  | pH 5.7, 25 °C, ionic strength 0.1 NaCl, together with: glyceraldehyde 3-phosphate substrate | baseline: mutant over wild type | Ki ratio | 211
COc1cc(Nc2ncc(F)c(Nc3ccc4c(n3)NC(=O)C(C)(C)O4)n2)cc(OC)c1OC | CSNK1D (Homo sapiens, UniProt P48730) | KINOMEscan |  | 10 µM |  | inhibition | 0%
Nc1ccc([N+](=O)[O-])cc1 | Androgen receptor (AR, Pan troglodytes, UniProt O97775) | radioligand binding |  | concentration not given | direction not given | cytotoxicity Z-score | 0.00985
C[N+](C)(C)CCOP(=O)(O)O | Uncharacterized protein (Pelagibacter ubique, UniProt Q4FM26) | differential scanning fluorimetry | Candidatus Pelagibacter ubique | in-house screen |  | thermal shift | 2.29 °C
CN1CCN(c2cc(-c3ccncc3)c(-c3ccc4ccccc4c3)nn2)CC1 | ADRA2A (Homo sapiens, UniProt P08913) | agonist, FLIPR |  | 12.5 µM |  | activation | -0.4%
O=C(c1ccc(Cl)cc1)N1CCN2C(=O)N(OC(=O)N3CCOc4ccccc43)C(=O)C2C1 (centres unmarked) | Platelet-activating factor acetylhydrolase 2, cytoplasmic (PAFAH2, Homo sapiens, UniProt Q99487) | enzyme activity, inhibitor, MS-based ABPP | SW-620 in situ | 10 µM, 2 h, 37 °C | baseline: compound over DMSO, lower = stronger inhibition | median ratio | 1.1
CC[C@@H](C)[C@@H](NC(=O)[C@@H](Cc1ccc(O)cc1)NC(=O)[C@H]1CCCN1C(=O)[C@@H](CCCNC(=N)N)NC(=O)[C@H](N)Cc1c[nH]cn1)C(=O)N[C@H](C)C(=O)N[C@H](Cc1c[nH]cn1)C(=O)N[C@H](CCCNC(=N)N)C(=O)N[C@H](CCCCNC(=O)c1cccc(S(=O)(=O)F)c1)C(=O)N[C@H](Cc1ccc(O)cc1)C(=O)N[C@H](CO)C(=O)N[C@H](Cc1ccccc1)C(N)=O | Transferrin receptor protein 1 (Tfrc, Mus musculus, UniProt Q62351) | flow cytometry | RAW264.7 | 48 h, pH 6, replicate 2, unit not given | baseline: 0 h | surface TFRC expression | 1.04
[2H]c1c([2H])c([C@]2([2H])CCCN2C(=O)C(C)(C)Oc2ccc3cn[nH]c3c2)c([2H])c([2H])c1C([2H])([2H])[2H] | STK4 (Homo sapiens, UniProt Q13043) | KINOMEscan |  | 1 µM | baseline: DMSO control | remaining binding | 78%
CN(C(=O)n1cnc(-c2ccc[n+]([O-])c2)c1)C1CCCCC1 | Carboxylesterase 1C (Ces1c, Rattus norvegicus, UniProt P10959) | enzyme activity, ABPP | rat, brain | oral, 10 mg/kg/day, 28 days | baseline: vehicle | fold change | -2.9

Structure (SMILES) | target | test | test system | conditions | scale | measurement | value
C[C@@H](NC(=O)[C@@H](N)Cc1ccc(O)cc1)C(=O)NCC(=O)N(C)[C@@H](Cc1ccccc1)C(=O)NCCO | Oprm1 (Mus musculus, UniProt P42866) | agonist | mouse spinal cord membranes | 31.6 nM | baseline: basal binding | GTPγS binding | 0.62% and 0.49% and 1.47% and -1.99% and -0.41% and -3.56% and -3.06%
O=C(O)c1cccc(C(O)P(=O)(O)O)n1 (centres unmarked) | Metallo-beta-lactamase type 2 (Serratia marcescens, UniProt P52699) | inhibitor |  | together with: nitrocefin |  | dissociation half-life | 23 ± 1.3 min
CC[N+]1(CC)CCN(c2ccc(C)cc2)CC1 | Nicotinic acetylcholine receptor alpha1/beta1/epsilon/delta | ion current, inhibitor, two-electrode voltage clamp | Xenopus oocytes | 30 µM, after co-application, unit not given, together with: ACh 30 µM | baseline: ACh alone | ACh response | 0.639 ± 0.271
Cn1cc(C(=O)CCl)nn1 | UCHL1 | covalent, intact protein LC-MS |  | 12.5 µM |  | labelling | 19.9%
CC[N+]1(C)CCN(c2ccc(C(N)=O)cc2)CC1.[I-] | Nicotinic acetylcholine receptor alpha1/beta1/epsilon/delta | ion current, inhibitor, two-electrode voltage clamp | Xenopus oocytes | 30 µM, after co-application, unit not given, together with: ACh 30 µM | baseline: ACh alone | ACh response | 0.452 ± 0.072
NCCc1ccc(O)cc1 | N-alpha-acetyltransferase 80 (NAA80, Homo sapiens, UniProt Q93015) | substrate, DTNB |  | 2 mM, 30 min, 37 °C, together with: acetyl-CoA 500 µM |  | product formation | -0.09 µM
C[N+]1(C)CCN(c2cccc(Cl)c2)CC1.[I-] | Nicotinic acetylcholine receptor alpha1/beta1/epsilon/delta | ion current, inhibitor, two-electrode voltage clamp | Xenopus oocytes | 30 µM, after co-application, unit not given, together with: ACh 30 µM | baseline: ACh alone | ACh response | 0.694 ± 0.186
Clc1ccc(COc2ccccc2CNCc2ccncc2)cc1 | Aminoglycoside N(3)-acetyltransferase IV (aacC4, Salmonella sp, UniProt P08988) | neomycin acetylation, inhibitor |  | together with: neomycin |  | highest concentration without inhibition | > 200 µM
COC(=O)[C@@]1(O)C[C@H]2O[C@]1(C)n1c3ccccc3c3c4c(c5c6ccccc6n2c5c31)C(=O)NC4 | MAPK3 (Homo sapiens, UniProt P27361) | ADP-Glo |  | 3.81 nM, together with: MBP substrate |  | kinase activity | 70.5% and 87.9% and 101%
CCCCC/C=C\C/C=C\C/C=C\C/C=C\CCCC(=O)NCCO | Trpv1 (Mus musculus, UniProt Q704Y3, E571S) | ion current, agonist, whole-cell patch clamp |  | E571S | baseline: 3 mM 2-APB | maximal open probability | 0.19 ± 0.07
O=C(O)C(F)(OC(F)(F)C(F)(F)C(F)(F)F)C(F)(F)F (centres unmarked) | ALB | ITC |  | 25 °C |  | ΔS | 0.015 kcal/mol/K
CC(=O)NC[C@H]1[C@H](O)[C@H](O)[C@@H]2[C@H](O)C[C@@H](CO)N21 | human placental β-N-acetylglucosaminidase |  |  | 0.00644 µM, run 2, together with: p-nitrophenyl GlcNAc |  | inhibition | 51.5%
O=C(CCl)c1cc(Cl)ccc1Cl | UCHL1 | covalent, intact protein LC-MS |  | 12.5 µM |  | labelling | 13.4%
COc1cc(-c2[o+]c3cc(O)cc(O)c3cc2O[C@@H]2O[C@H](CO)[C@@H](O)[C@H](O)[C@H]2O)cc(OC)c1O | ALB | binding, fluorescence quenching |  | 20 °C |  | Gibbs free energy | -5.45 kcal/mol
CN(C(=O)n1cnc(-c2ccc[n+]([O-])c2)c1)C1CCCCC1 | muscarinic receptor, rat | binding |  | 50 µM, together with: [3H]oxotremorine M |  | inhibition | -16%
CCN(CC)CCCC[C@H](NC(=O)[C@H](CC(C)C)NC(=O)[C@H](C)NC(=O)[C@H](Cc1ccccc1)NC(=O)c1ccc(C(C)(C)C)cc1)C(=O)N[C@@H](CO)C(=O)OC | CCR1 (Homo sapiens, UniProt P32246) | radioligand binding |  | 10 µM |  | specific binding | 93.4%
